Results collected from several papers.
Every numbered part comes from another study and shows a few of its results, in no order.

Study 1
Target: Sal-like protein 4, full length isoform A (SALL4, Homo sapiens, UniProt Q9UJQ4, residues 1-1053)
UniProt Q9UJQ4, sequence (whole entry, looked up): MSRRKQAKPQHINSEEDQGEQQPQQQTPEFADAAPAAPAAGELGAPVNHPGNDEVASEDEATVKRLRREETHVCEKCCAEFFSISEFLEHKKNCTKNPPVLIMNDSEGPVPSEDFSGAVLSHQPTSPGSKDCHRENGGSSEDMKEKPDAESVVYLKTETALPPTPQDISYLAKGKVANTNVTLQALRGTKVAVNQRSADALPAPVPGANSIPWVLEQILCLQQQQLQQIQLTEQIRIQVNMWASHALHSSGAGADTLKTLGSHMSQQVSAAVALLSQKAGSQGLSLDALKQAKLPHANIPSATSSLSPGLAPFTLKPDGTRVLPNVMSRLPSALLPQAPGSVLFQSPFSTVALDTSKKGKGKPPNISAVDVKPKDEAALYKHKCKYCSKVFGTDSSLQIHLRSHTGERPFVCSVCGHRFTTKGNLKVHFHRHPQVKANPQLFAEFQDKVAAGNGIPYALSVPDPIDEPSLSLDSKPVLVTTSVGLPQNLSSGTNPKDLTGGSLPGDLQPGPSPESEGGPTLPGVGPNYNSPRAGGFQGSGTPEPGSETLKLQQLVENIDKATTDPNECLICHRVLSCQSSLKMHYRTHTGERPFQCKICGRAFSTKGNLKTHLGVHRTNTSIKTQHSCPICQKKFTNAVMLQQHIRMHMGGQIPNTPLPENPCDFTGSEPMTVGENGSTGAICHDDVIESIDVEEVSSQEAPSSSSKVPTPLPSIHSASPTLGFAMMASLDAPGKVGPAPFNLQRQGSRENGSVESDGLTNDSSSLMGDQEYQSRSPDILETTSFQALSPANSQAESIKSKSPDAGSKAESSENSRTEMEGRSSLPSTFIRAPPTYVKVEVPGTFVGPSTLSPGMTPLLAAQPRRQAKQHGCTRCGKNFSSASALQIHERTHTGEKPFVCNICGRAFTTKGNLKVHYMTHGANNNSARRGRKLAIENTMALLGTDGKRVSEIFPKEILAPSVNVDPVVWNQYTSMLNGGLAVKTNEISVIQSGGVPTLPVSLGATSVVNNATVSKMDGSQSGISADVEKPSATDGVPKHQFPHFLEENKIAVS
Technique: universal PBM
Molecule type: double-stranded DNA, one strand shown
Medium: in vitro
Concentration: 600 nM
Notes: 8-mer, flanks averaged, mean of replicates
Direction: higher = stronger binding
Endpoint: E-score
AAGCTGCA: -0.0528
CTGAACGA: -0.0566
ACCGGCGA: -0.298
GATTCTGC: -0.0714
AAGAGACA: 0.0974
ATGGTAAG: 0.0559
ACAATTCC: 0.0271
CAACACCG: -0.213
AGGCGTAT: 0.165
CAAAGGTA: 0.0644
ATTTAGTG: 0.267
CGATTAAC: 0.0518
CGTATCGA: -0.00383
CATGCCCC: -0.241
ATCGGTAG: 0.138
GTCCTAAC: 0.102
CATCGCGG: -0.201
ATCGATCG: -0.021

Study 2
Target: Histone acetyltransferase KAT6A, winged helix 1, GST fusion (KAT6A, Homo sapiens, UniProt Q92794, residues 1-85)
Technique: protein binding microarray
Molecule type: double-stranded DNA, one strand shown
Medium: in vitro
Concentration: not given
Notes: 8-mer, flanks averaged, mean of 2 arrays, mostly near background
Reference: not given
Direction: higher = stronger binding
Endpoint: E-score
Target sequence (chain): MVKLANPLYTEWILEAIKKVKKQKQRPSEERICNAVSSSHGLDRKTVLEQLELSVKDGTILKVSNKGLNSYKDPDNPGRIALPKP
GATTCTGA: -0.0915
GAGATCTA: -0.114
AGTTGAAG: -0.256
CGATGGAA: -0.0593
GGCCTGAC: -0.0107
CGAAATGC: 0.0143
AATCAAAG: -0.0928
AGTGACCA: -0.287
ACTTGCCC: -0.126
AGCCTTTA: -0.0513
GTTCTCTA: 0.0388
ACTCATGC: -0.0843
GAAAATAC: 0.0119
TCGGTAGA: 0.0481
GCGCAGCA: 0.162
CGTACGTA: 0.189
ATAAGTAC: -0.0866

Study 3
Target: Interferon regulatory factor 7, full length, phosphomimetic (IRF7, Homo sapiens, UniProt Q92985, residues 1-503, S101K/S471D/S472D/S475D/S476D/S477D/S483D/S484D/S487D)
UniProt Q92985, sequence (whole entry, unmodified, looked up): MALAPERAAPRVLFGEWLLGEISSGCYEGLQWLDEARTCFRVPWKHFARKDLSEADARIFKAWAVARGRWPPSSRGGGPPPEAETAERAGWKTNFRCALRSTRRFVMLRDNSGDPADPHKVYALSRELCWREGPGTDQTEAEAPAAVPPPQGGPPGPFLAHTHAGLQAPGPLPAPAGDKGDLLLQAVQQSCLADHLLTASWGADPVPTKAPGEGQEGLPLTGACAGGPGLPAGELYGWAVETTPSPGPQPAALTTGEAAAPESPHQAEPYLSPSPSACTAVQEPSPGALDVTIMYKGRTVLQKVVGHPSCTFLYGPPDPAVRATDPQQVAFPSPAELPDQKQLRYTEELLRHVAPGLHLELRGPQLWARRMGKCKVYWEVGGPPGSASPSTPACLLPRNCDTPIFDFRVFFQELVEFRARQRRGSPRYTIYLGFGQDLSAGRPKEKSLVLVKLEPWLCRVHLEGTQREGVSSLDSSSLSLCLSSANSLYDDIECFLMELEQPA
Technique: protein-binding microarray
Molecule type: double-stranded DNA, one strand shown
Medium: in vitro
Concentration: 250 nM
Notes: 60-bp whole probe
Together with: salmon DNA 0.4 mg/ml
Reference: random background probes
Direction: higher = stronger binding
Endpoint: log fluorescence
All sequences stand within: GCCTAGCAC … GTCTTGATTCGCTTGACGCTGCTG
GACGAACTGCGGACTGGAGACGTGCTA: -0.786 z-score
GACGGACTGGGGACTGGGGACGTGCTA: -0.388 z-score
TTAGATTTCAGGTATCGATTAGTGCTA: 1.52 z-score
GACGGTTCCCTTTTCTTGACGTGCTAG: 2.43 z-score
GACGGTTTACTTTCCCTGACGTGCTAG: 0.617 z-score
TGGAACCAGCGAACGAGCGGGTGCTAG: -0.752 z-score
TTAGATTCCAGTTTCGATGAGTGCTAG: 4.67 z-score
CACCCTTGGAAGTATGACTCTGTGCTA: -0.143 z-score
TTAGGTATCCTAATGCTTTAGTGCTAG: 0.294 z-score
GCCGGTTTCGGGACTGGGGACGTGCTA: 4.46 z-score
GAAGGTATCGGTATCGGGACGTGCTAG: 1.34 z-score
TTAGATTTCAGTTCCGATCAGTGCTAG: 1.07 z-score
TCAGTTCCTTATTTAAGACTGTGCTAG: 2.39 z-score
GACGGACTCGGGACTGGGGACGTGCTA: -0.168 z-score
TTAGGTCTCCTGATCCTTTAGTGCTAG: -0.208 z-score
GACGGTTCTCTTTTCCTGACGTGCTAG: 1.6 z-score
CTGCTGGCCTGTTGCTGGAAGTGCTAG: -1.22 z-score
TTAGGTATCGGCTATCGGTTAGTGCTA: -0.0916 z-score
GACGGTATCGGTCTCGGGATGTGCTAG: 1.07 z-score

Study 4
Target: RNA binding protein fox-1 homolog 2, RRM domain, GST-SBP tag (RBFOX2, Homo sapiens, UniProt O43251-10, residues 100-194)
Technique: RNA Bind-n-Seq
Molecule type: RNA
Medium: in vitro
Concentration: 365 nM
Notes: natural RNA segment, single round, ends assumed
Reference: no-protein control
Direction: higher = stronger binding
Endpoint: RBNS enrichment (R)
Residues (chain): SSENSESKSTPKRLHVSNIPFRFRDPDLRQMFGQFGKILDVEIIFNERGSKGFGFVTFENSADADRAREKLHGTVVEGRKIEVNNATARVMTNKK
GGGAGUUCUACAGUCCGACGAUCAACAAGGCCUGGUCCUAGCAAACCUUAGCAUAUCUUCCCUUUUUAUUAUAAAUGGGUGGUUGUUUGGUUUGUUUAUUUUUAUAAUUUUUACUGAUGCUCAGUAACCAUGAUGGAAUUCUCGGGUGCCAA: 0.524
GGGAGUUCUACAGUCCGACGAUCCUCCGGAAGGCUGGGAGGAGGUGGGCUAGAUGAUCUUUGGAGCUUAAGGAGUCCCAGCCCUUUCUCUGAUGCCACCACCUGAACCCUGCUCCCUCGUGGGCCAGUGAAAAUGGAAUUCUCGGGUGCCAA: 0.691
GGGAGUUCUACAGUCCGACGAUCGAGACCCGGGUUGAUUUGUGCUAUCUUGGGUCUUUGGCUUAAAUUAAUAGAUUUGUUCUGUGUUUGAUUGCCAGCAUCCUCCAGACCCCUGAAUCAUCUAAAGCUAGGUCUGGAAUUCUCGGGUGCCAA: 0.804
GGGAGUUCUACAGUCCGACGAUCAGGUUGAUUUUUGUGUUGAUCCAAAUCAGAAUAGCUAUUGAGUGUUUAAGUCAUGACUUUAUUUUUCUGGGCAUGCUAUAUAAACUUGAAUUUCCUAUGUAUUUUUAUUGUGGAAUUCUCGGGUGCCAA: 1.17
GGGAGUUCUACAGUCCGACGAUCGUAAAGUUUUUGUAUAUUUCAUAUUCCACCCACCAGAUUCUGCUUCCAUUUAAUAAAACCCUUUUUGAAGCUGUGUGUUCUCUGGUGUGUCACAGCAGUGUGCGGUCCUCUGGAAUUCUCGGGUGCCAA: 0.547
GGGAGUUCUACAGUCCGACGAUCAGUCCUCAGCCUCACAGCUUCCUUCCCUUUUCAGCAGGCUGAUGGAGACAUGCCACCAACAUAGACAGGUUGGUCACCGAUGGCCAUUUUCAUAAAUAUUUCUGUGGGCCUGGAAUUCUCGGGUGCCAA: 0.526
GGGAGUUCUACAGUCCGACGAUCCUCCAGAGAGAGGACCCUGCCCAUCCUCCUUUUGAAGCCAGGACUUAUUCUUGGUUCAUCAUACUCCAGACCAUGUAUCCUCUGGUGUCCUGGCUGGAAGAAGGGGCGUGUGGAAUUCUCGGGUGCCAA: 0.335
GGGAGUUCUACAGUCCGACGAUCUGUGUACAGUAGAGUUUGUUGACACUCCGGUCAUUUCUGACCUGACUUGACCAUCGGUGGCCAUUUUCCAAGCCAGUCUGGUCAAGACUCAUGGCUGAACCUCUGAGACUUGGAAUUCUCGGGUGCCAA: 0.248

Study 5
Target: Ras GTPase-activating protein-binding protein 1, full length (G3BP1, Homo sapiens, UniProt Q13283)
UniProt Q13283, sequence (whole entry, looked up): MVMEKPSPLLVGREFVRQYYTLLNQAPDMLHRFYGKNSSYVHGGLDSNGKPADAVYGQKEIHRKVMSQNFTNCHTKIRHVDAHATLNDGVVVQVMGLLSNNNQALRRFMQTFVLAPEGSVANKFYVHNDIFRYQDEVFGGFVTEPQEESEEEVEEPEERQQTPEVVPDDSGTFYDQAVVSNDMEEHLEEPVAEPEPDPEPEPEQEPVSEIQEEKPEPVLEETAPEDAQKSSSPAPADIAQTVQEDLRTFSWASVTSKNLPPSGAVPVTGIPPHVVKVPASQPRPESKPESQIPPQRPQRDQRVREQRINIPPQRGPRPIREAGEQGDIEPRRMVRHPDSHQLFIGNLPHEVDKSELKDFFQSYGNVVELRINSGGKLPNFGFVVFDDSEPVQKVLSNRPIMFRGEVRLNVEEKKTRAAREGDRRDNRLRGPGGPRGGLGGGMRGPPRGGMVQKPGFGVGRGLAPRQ
Technique: RNA Bind-n-Seq
Molecule type: RNA
Medium: in vitro
Concentration: 200 nM
Notes: whole 134-nt RNA, ends assumed
Together with: 150 mM KCl
Reference: input library
Direction: higher = stronger binding
Endpoint: log2 enrichment
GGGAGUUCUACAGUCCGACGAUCGCAGGAAGUAAAAACAAAUGGAACUGCUUCGGAUAGUGGCAGGGGUGGGGGUUGCUAAGGAAAGGGUGGGAUGGGAGUGGGUAAAGAGUUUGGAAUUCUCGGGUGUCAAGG: 1.06
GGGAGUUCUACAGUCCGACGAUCUCAAGUCCUGUGCUACACAUCGUAUGUACCGAAUCGGAGGUUUUUGGAAAAAGGAAAGUAUUAUGUUACGCCGUUCGGAUCUGCACUUCCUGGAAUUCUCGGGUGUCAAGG: -1.05
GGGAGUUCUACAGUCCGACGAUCCUCAAGUCCUGUGCUACACAUCGUAUGUACCGAAUCGGGGUUGGGUUGGGUUGGAAAGUAUUAUGUUACGCCGUUCGGAUCUGCACUUCCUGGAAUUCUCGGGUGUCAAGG: 0.433
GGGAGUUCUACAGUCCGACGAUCAAGACAUUUGUUGUAUUUAUGGUUGUAACUGUACAUGCUUAUCAGGAUGAGACUGAAAGAAGGUAGGGCAAAAAUGGUUGAAUCUAUUUUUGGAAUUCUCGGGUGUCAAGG: -1.09
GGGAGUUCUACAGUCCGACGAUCGUCCUGUGCUACACAUCGUAUGUACCGAAUCGGGGAAAAAGGGGUGGGGUUUUUGGGGAAAGUAUUAUGUUACGCCGUUCGGAUCUGCACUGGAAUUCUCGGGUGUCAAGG: 0.358
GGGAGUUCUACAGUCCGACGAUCCCUCAAGUCCUGUGCUACACAUCGUAUGUACCGAAUCGGAAAAAGGUGGAGGAAAGUAUUAUGUUACGCCGUUCGGAUCUGCACUUCCAGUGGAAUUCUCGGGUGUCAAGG: 0.0265
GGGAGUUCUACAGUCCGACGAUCGUCCUGUGCUACACAUCGUAUGUACCGAAUCGGGAAAAAAAGGGUGGGAAAAAAAGGGAAAGUAUUAUGUUACGCCGUUCGGAUCUGCACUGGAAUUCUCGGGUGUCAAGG: -0.373
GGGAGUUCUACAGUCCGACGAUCCCUCAAGUCCUGUGCUACACAUCGUAUGUACCGAAUCGGAGGGAGGGAGGGGAAAGUAUUAUGUUACGCCGUUCGGAUCUGCACUUCCAGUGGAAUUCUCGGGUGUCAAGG: 1.12
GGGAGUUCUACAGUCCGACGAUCAAGUCCUGUGCUACACAUCGUAUGUACCGAAUCGGUUUUUUUGGUUUUUUUGGAGGAAAGUAUUAUGUUACGCCGUUCGGAUCUGCACUUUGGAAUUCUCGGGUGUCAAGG: -0.982
